Results pooled from the literature.
A part holds a random share of what one study measured.

Set 1 — method: protein-binding microarray; molecule type: double-stranded DNA, one strand shown; medium: in vitro; tested at: 250 nM; setting: 60-bp whole probe; added: salmon DNA 0.4 mg/ml; relative to: random background probes; reading: higher = stronger binding; constant ends, left off below: GCCTAGCAC … GTCTTGATTCGCTTGACGCTGCTG
Target: Interferon regulatory factor 7, full length, phosphomimetic (IRF7, Homo sapiens, UniProt Q92985, residues 1-503, S101K/S471D/S472D/S475D/S476D/S477D/S483D/S484D/S487D)
Construct (chain): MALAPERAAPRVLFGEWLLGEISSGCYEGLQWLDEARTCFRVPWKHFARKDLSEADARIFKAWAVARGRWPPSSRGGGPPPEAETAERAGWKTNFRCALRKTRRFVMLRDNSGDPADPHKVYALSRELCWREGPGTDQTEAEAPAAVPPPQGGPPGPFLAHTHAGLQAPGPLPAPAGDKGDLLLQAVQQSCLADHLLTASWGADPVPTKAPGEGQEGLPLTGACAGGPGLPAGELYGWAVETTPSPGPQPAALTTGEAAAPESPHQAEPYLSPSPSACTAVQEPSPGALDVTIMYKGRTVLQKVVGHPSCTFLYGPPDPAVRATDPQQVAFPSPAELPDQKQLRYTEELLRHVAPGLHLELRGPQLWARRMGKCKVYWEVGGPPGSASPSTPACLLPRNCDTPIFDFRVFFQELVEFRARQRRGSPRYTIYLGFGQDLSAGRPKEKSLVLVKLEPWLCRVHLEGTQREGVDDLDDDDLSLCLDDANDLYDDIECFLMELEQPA
Oligonucleotide	log fluorescence
TTAGGTTTCGACTTTGGGTTAGTGCTA	9.38 z-score
TTAGGTTTCGGGTTTGGGTTAGTGCTA	10.5 z-score
GACGATTTCGGGACTGGAGTCGTGCTA	0.144 z-score
TCATTTCCCTATTATATAACTGTGCTA	4.46 z-score
TTAGGTTTCGACACTGGTTTAGTGCTA	3.89 z-score
GACGATTTCGGGGCTGGAGACGTGCTA	-0.193 z-score
TTAGGTTTACTACTGCTTTAGTGCTAG	-0.31 z-score
TTAGGTATACTTATCCTTTAGTGCTAG	-0.149 z-score

Set 2 — method: protein-binding microarray; molecule type: hairpin DNA; medium: in vitro; tested at: not given; relative to: not given; reading: higher = stronger binding; constant ends, left off below: GAGGCCA … TGGCCTCACACTC
Target: GDNF-inducible zinc finger protein 1, full length (GZF1, Homo sapiens, UniProt Q9H116, residues 1-711)
Setting: whole hairpin DNA, median over replicate spots
Residues (chain): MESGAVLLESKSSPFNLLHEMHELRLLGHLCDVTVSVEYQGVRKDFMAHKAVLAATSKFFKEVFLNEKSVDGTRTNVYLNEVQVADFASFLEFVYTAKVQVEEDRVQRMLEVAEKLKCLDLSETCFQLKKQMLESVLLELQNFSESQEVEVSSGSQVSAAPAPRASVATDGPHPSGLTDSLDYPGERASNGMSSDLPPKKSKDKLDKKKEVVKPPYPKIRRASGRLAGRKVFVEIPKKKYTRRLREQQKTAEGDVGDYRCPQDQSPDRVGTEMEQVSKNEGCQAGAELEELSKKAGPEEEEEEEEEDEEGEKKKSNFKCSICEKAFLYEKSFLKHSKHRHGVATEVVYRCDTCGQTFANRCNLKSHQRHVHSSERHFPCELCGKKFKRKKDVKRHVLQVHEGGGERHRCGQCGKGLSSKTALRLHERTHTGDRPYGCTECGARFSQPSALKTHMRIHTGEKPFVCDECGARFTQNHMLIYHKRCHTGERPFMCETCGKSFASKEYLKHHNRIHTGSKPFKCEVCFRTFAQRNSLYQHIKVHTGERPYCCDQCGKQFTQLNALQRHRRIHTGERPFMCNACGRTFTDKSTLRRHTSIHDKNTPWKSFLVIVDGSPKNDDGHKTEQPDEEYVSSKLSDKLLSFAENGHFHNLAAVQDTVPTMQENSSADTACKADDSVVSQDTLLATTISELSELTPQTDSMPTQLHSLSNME
Oligonucleotide	median fluorescence [a.u.]
CTACGGTAATGCCTCCTGGCATTACCGTAG (5mC at 8)	677
TTACGGTATTGCCTCCTGGCAATACCGTAA	532
TGACGGTAATGCCTCCTGGCATTACCGTCA (5mC at 36)	642
TTACCGTAATGCCTCCTGGCATTACGGTAA (5mC at 12)	552
TTACGGCAATGCCTCCTGGCATTGCCGTAA (5mC at 14)	504
TTACGGTAAGGCCTCCTGGCCTTACCGTAA (5mC at 28)	579
TTACTGTAATGCCTCCTGGCATTACAGTAA	355
TTACGGTAACGCCTCCTGGCGTTACCGTAA	690

Mixed results
Substance	tested on	assay	test system	conditions	quantity	value
HSP90B1 (Homo sapiens, UniProt P14625)	GIMAP2 (Homo sapiens, UniProt Q9UG22)	cross-linking MS	cells	added: BSPNO	cross-linked residues	K87 to K319
C[C@@H](c1cccc(C#N)c1)n1cc(Cl)cc(C(N)=O)c1=N	Dual specificity mitogen-activated protein kinase kinase 2 (MAP2K2, Homo sapiens, UniProt P36507)	cell-free assay, competition with immobilised ligand	–	1 µM	remaining binding	76%

For quick reference, copied from above (set 2):
Oligonucleotide	median fluorescence [a.u.]
TTACTGTAATGCCTCCTGGCATTACAGTAA	355
TTACGGTAACGCCTCCTGGCGTTACCGTAA	690
